Measurements of several laboratories.
A part holds a random share of what one study measured.

Set 1
Target: Centromere-binding protein 1, full length, His-tagged (CBF1, Saccharomyces cerevisiae, UniProt P17106, residues 1-351)
Sequence of UniProt P17106 (whole entry, looked up): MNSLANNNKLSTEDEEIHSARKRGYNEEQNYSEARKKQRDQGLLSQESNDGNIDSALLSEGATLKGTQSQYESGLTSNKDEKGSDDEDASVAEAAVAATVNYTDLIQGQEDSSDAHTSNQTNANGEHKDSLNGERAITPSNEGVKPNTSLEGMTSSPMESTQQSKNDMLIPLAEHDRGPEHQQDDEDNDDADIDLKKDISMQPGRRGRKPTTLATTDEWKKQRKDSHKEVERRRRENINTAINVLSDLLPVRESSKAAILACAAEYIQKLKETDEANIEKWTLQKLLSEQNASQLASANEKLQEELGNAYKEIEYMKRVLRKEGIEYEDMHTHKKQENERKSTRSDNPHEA
Technique: competition protein-binding microarray
Form: double-stranded DNA, one strand shown
Medium: in vitro
Tested at: 2 µM
Setting: whole 60-bp probe, lowest competitor level
Added: Pho4 competitor, 0.05 µM
Direction: higher = stronger binding
All sequences stand within: … GTCTTGATTCGCTTGACGCTGCTG
The fluorescence intensity of `TCTATGTAACTACGTCTTGTGATGACCGGTATAGCT` is reported as 87 a.u.
With `TGAAAATTAGACTGTCATGTGATGAGTAATATCGTC` the fluorescence intensity was 2680 a.u.
With `ACCATACACTATCAAGCAATATTATACTTGTTCTTT` the fluorescence intensity was 81.7 a.u.
The fluorescence intensity of `CTTCTGTAAATTTGACACGTGTTTTGACGCGCCCCG` is reported as 1670 a.u.
With `CGCGCTGCCGGCCAAGACGTGATGGTGGTTGTCGAC` the fluorescence intensity was 68.3 a.u.
With `CGTCCTAGCGATTGATTCGTGGGTGCCATGAGGAAG` the fluorescence intensity was 83.4 a.u.
`CATACCCAACCTTGTCACTTGACTTAAGATATTTGT` gave a fluorescence intensity of 192 a.u.
The fluorescence intensity of `CATACCCAACCTTTTCACGTGAAGTAAGATATTTGT` is reported as 815 a.u.
For `GGATGAGTCAAAAAGCATGTGACAGTGAAATAATCA`, the fluorescence intensity was 741 a.u.
For `GTCTTGTCTCATTTTCACGTGGCCTTCCCCACTTCA`, the fluorescence intensity was 566 a.u.
`CTTCTGTAAATTTGAGCGGTGGGTGGACGCGCCCCG` gave a fluorescence intensity of 80.5 a.u.
For `TTTAGGCCGCAGTGGGTCGTGCCAGACGGCAGCGAT`, the fluorescence intensity was 57.1 a.u.
The fluorescence intensity of `GGGCTTCGGAGTTAGCACGTTGAAAGGCATCTGCCA` is reported as 75.1 a.u.
With `GCATCAGATTCTTGTCATGCTTGTTCAATATACATC` the fluorescence intensity was 124 a.u.
The fluorescence intensity of `TGCGCAACAACTTGTCACAGAACTTTATGTCTAGAA` is reported as 75.2 a.u.
`TGGAATGTATACCTGCACACGCTTGGTAAGGCCAAC` has a fluorescence intensity of 69.7 a.u.
`TGACCATTGACTTTGAACGTGGTCGTCCAGTAAAGT` has a fluorescence intensity of 82.2 a.u.
`CGGGGTTAAGTTTGCGTCGTGGGTGGCTTGCAGCAG` gave a fluorescence intensity of 69.3 a.u.
`AAAGCGGTAATTTTTCACGTGGGATCAAATATCTAT` has a fluorescence intensity of 1150 a.u.
With `GAGGTACCGATAGATCTCGTGGTGATGGTTACGTTG` the fluorescence intensity was 123 a.u.
`GGTTTTTGAAATCATACCTGCCAAGCTTGCTGCACT` has a fluorescence intensity of 80.6 a.u.
`GCCATGTTTATTAAACTCGTGTATCCATAAGGACTC` has a fluorescence intensity of 111 a.u.
With `CGGGGTTAAGTTTGATGCGTGGGTGGCTTGCAGCAG` the fluorescence intensity was 89.3 a.u.
For `ATGGCACTCATTGATGGCGTGATGGAGCAGAACCTC`, the fluorescence intensity was 93.4 a.u.

Set 2
Target: RING finger protein unkempt homolog, zinc fingers 1-6, GST-SBP tag (UNK, Homo sapiens, UniProt Q9C0B0, residues 30-357)
Sequence of UniProt Q9C0B0 (30-357, looked up): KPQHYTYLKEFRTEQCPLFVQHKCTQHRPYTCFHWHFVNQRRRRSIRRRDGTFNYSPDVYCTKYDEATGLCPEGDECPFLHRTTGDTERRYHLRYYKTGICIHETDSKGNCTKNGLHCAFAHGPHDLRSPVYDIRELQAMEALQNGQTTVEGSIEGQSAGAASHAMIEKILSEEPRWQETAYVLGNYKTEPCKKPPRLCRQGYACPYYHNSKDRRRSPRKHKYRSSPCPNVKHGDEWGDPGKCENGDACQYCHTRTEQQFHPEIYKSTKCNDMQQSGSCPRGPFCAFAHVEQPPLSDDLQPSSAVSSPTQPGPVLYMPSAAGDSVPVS
Technique: RNA Bind-n-Seq
Form: RNA
Medium: in vitro
Tested at: not given
Setting: RNA with constant flanks, human and mouse sites, ends assumed
Reference: input RNA pool
Direction: higher = stronger binding
All sequences stand within: GGGAGUUCUACAGUCCGACGAUC … CAACAGAGGAUUGAGCAUCA
With `GUUGAGCCAGCAAGUCAUGGGAGCAAGGGGUAGAUGGACAGUCCGGCACUACAGAACCGUCAUAGGUCUCAAGAGGUCUGGGUGGGAGGUGAAGGGAGAGAACCAAAGCAGAUAGGGAAU` the bound/input enrichment was 0.85 ratio.
The bound/input enrichment of `GGAGAUAACCAGCCACUUCAUAUUUUUGACAAACUCCAUACAUCACCUCUUACUCAGAUACGGCUAAACCCAGUUUACAAAGCAGUAGUGUCUUCUGACAAAUCUGGGAUGAUUGAAUAC` is reported as 0.306 ratio.
For `ACUGAUUACAAAUCACCAUCAGCUGAUGACAAAGGGCAGCCAUCUGACCCCAGCCAAUCUAGUUUCACAGGUCUUUUGAAGAGAAUGGAACAAAGAGGUGUUAUAAAAAGGGUGACAUUA`, the bound/input enrichment was 0.167 ratio.
With `UCUACGAGAAAUUACGACUUUGCAUGGAGAAAGUUGACCAGAAAGCUCCAGAAUACAUCAGGAUGGCAGCAUCAUUAAAUGCUGGGGAGACAACCUACAGUCUGGAACAUGCCAGUGACC` the bound/input enrichment was 0.194 ratio.
For `ACCAGGGGAACUUCCAUCAAGGAGUUCCGGGAGAUGACCCUCAGCUUCCUCAAGGCUAACUUAGGAGACCUGCCUUCCCUGCCAGCGCUGGUUGACCAGAUACUUCUCAUGGCGGACUUC`, the bound/input enrichment was 0.137 ratio.
With `ACACCCUGGUUCUGGGCCAGAGAUAAAACCAAUACCUGGUCUGGGCCCAGGGAAGAUCCCAAUAGCAGGUCCAGGUUUAGGUCUAAGAAAGAAGUCUAUGUUGAAUCAAGUUCUGGAUCU` the bound/input enrichment was 0.145 ratio.
With `CCACCGUCUUCAUCUCCUUUAGAACAAAGCACAGAGGAGGGAGUACACCUAAACCAGGCAGUCACGCUGGACGCUAACGAGGAAGAAAUGCUGGAGGUGAUGUCUGAUUCCGAGGAGAAU` the bound/input enrichment was 0.149 ratio.
`AAGAAAGUACAUAGCCAAGGUAACCCAUCAAAAGCAGCUCCUAGGGAAAGAGAGCCAAUUCAGCGAGGAGCCCAGGAAGUAAGUGUAGACUCUGAAGUGAGUCGGAAAGCACUCUCUAGG` has a bound/input enrichment of 0.522 ratio.
The bound/input enrichment of `AGUCAACCCUUGAGUCUUCUAGAAGCUGUCCUUCAGGAAUGUCAUAAUACUUUCACUGCCUGCUUUCAUUCUUUCUACCCAACUCCUGCCUUACAGUGGGCUUGCCUUUGUGAUCUGCUG` is reported as 0.302 ratio.
For `ACCAUUUUCGCGGUUCAGGCUUUGUGUGUAGUUCACUUACGGUAUUAAAUUAUUAUUCUGCUUAGCUUAUAAUAAGGAUAAUUGCAUUUAAAGAGGUUACUGAAUGUUACUCUGAAACUU`, the bound/input enrichment was 0.686 ratio.
`GAAGGGGUCUUGGUGUUUAAAGCAUAAGUUACCUGUUUGCACUGUUUUCAAAUAGGAAACAAUAGUGGGCACGGUGAACAUCUAAUGUAAACGUGUGUUUUCUUUUGUCAUGCUCUUGAG` has a bound/input enrichment of 0.181 ratio.

Set 3
Target: Prothrombin, mature alpha-thrombin (F2, Homo sapiens, UniProt P00734)
Technique: aptamer microarray, sandwich
Form: DNA with 2'F-ANA
Medium: in vitro
Tested at: 200 nM
Setting: whole 15-mer aptamer, many near background
Added: Cy3 exosite-II aptamer, 400 nM
Direction: higher = stronger binding
Sequence: GGTTGGTGTGGTTGG
`2'F-ANA at 1 2 5 6 10 12 13 14 15` — result for “mean fluorescence intensity”: 48.2 a.u.
For `2'F-ANA at 2 5 7 11 12 15`, “mean fluorescence intensity” read 125 a.u.
`2'F-ANA at 4 7 8 10 11 13 15`: “mean fluorescence intensity” 70.7 a.u.
`2'F-ANA at 1 2 3 6 7 9 10 11`: “mean fluorescence intensity” 60.9 a.u.
Under “mean fluorescence intensity”, `2'F-ANA at 1 3 6 9 13 15` is recorded as 203 a.u.
Under “mean fluorescence intensity”, `2'F-ANA at 2 8 9 10 11 12 13 14 15` is recorded as 91.1 a.u.
Under “mean fluorescence intensity”, `2'F-ANA at 2 6 8 14` is recorded as 167 a.u.
`2'F-ANA at 1 2 3 11 12 13 15`: “mean fluorescence intensity” 317 a.u.
For `2'F-ANA at 1 2 3 4 5 6 10 12 15`, “mean fluorescence intensity” read 52.8 a.u.
`2'F-ANA at 2 3 5 10 11 14` — result for “mean fluorescence intensity”: 56.1 a.u.
For `2'F-ANA at 2 3 6 7 9 10 12 13 15`, “mean fluorescence intensity” read 372 a.u.
For `2'F-ANA at 2 3 6 10 11 15`, “mean fluorescence intensity” read 306 a.u.
`2'F-ANA at 4 5 6 7 8 9 10 11 12 13 15` — result for “mean fluorescence intensity”: 49 a.u.
For `2'F-ANA at 1 3 4 5 7 9 13`, “mean fluorescence intensity” read 112 a.u.
For `2'F-ANA at 1 2 4 5 9 10 11 12 13`, “mean fluorescence intensity” read 49.9 a.u.
Under “mean fluorescence intensity”, `2'F-ANA at 2 3 5 6 8 9 10 12 14` is recorded as 65.8 a.u.
Under “mean fluorescence intensity”, `2'F-ANA at 6 7 9 11 15` is recorded as 348 a.u.
`2'F-ANA at 1 2 3 4 5 6 7 8 11 15`: “mean fluorescence intensity” 57.8 a.u.
`2'F-ANA at 3 4 5 6 7 8 9 12 13`: “mean fluorescence intensity” 122 a.u.
`2'F-ANA at 2 4 5 6 11 12 14 15` — result for “mean fluorescence intensity”: 48.4 a.u.
Under “mean fluorescence intensity”, `2'F-ANA at 1 4 7 8 10 13 14 15` is recorded as 97.5 a.u.
`2'F-ANA at 1 4 10 13 15` — result for “mean fluorescence intensity”: 81.8 a.u.
`2'F-ANA at 3 6 9 10 11 15` — result for “mean fluorescence intensity”: 419 a.u.
Under “mean fluorescence intensity”, `2'F-ANA at 2 3 4 6 11 12 14` is recorded as 269 a.u.
Under “mean fluorescence intensity”, `2'F-ANA at 2 7 8 9 12` is recorded as 840 a.u.

Set 4
Target: RNA binding protein fox-1 homolog 2, RRM domain, GST-SBP tag (RBFOX2, Homo sapiens, UniProt O43251-10, residues 100-194)
Technique: RNA Bind-n-Seq
Form: RNA
Medium: in vitro
Tested at: 365 nM
Setting: natural RNA segment, single round, ends assumed
Reference: no-protein control
Direction: higher = stronger binding
All sequences stand within: GGGAGUUCUACAGUCCGACGAUC … UGGAAUUCUCGGGUGCCAA
Construct (chain): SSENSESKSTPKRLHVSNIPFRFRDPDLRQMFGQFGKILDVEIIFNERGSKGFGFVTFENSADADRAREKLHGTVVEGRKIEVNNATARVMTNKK
`AAGGGAUAGUAAUACCUACUUGCAGGUUGUUGUCAUCUGAGUUGAGCACUGGUCACAUUGAAGGUGCUGGGUAAGUGGUAGCUCUUGUUGCUUCCCGUUCAGCGUCACAU` — result for “RBNS enrichment (R)”: 0.449.
For `GUUCAAAGCAUACUUUUCAUGAUUUUUUUAUUACAAAUGUAAAAUGUAUAAAGUCACAUGUACUGCCAUACUACUUCUUUGUAUAUAAAGAUGUUUAUAUCUUUGGAAGU`, “RBNS enrichment (R)” read 0.561.
For `GAAUAAAUAGAUGAAGUGAGAUACAAAGCUGGGUUUGAUUCAAAGCCCUUACUUUCCUAAUUAAACUAUGAUGCGUAUUUAUUUUUCUGCACCUUCCUUUCUUCCACAAA`, “RBNS enrichment (R)” read 0.989.
For `AAUGCUGUGUAGCUGGAGUUCACGCUCACAGCCUUUAGCGCUUUGUUGCUUGUUUUGUUUUAAUCUGAAGGUUCUGGUAACCUGUUUUUGUUUGUUUGUUUAUUUGUUUU`, “RBNS enrichment (R)” read 38.1.
`CCUGGUGACCUCGCCGCUCUUCUUGAAUCAUGCUGGGCUGCCCCUGCUCAGCACCCCGCCUGGUGUGGGCCUGGUCUCAGCAGCGGCUGCGGCUGUGGCAGCCUCCAUCU` — result for “RBNS enrichment (R)”: 0.209.
`GGAGGAGUUUCCUUGCUGAGAUUUCAAAUAGUCCUCCCCACCUCAACUGUCACCACUGCUAAGGGACUCUAUCCAUUGAGCACAUUUUCCUAAGGCCCUGCUGUCUGCCG` — result for “RBNS enrichment (R)”: 0.416.
`CCCACCCCCUUCAGUGCCCACCAACAUCCCAUUGCCCUGGUUAUAUUCUCACGGGCAGUAGCUGUGGUGAGGUGGGUUUUCUUCCCAUCACUGGAGCACCAGGCACGAAC`: “RBNS enrichment (R)” 0.455.
For `AGCAGCACCUGUGGUCUGGCCUCUGCCUUGCCCUCAUGCAGCCAUGAGCUGCCUUAAGGGGAAGAGUGCCAAUGGUCUUCGUGGACUUCAGAAGUGACUUUGAGACUGUU`, “RBNS enrichment (R)” read 1.31.
`CUAUCCUGUUAAUUUAAUUUUUAAAUGCUUUAUCCAUUUGUGCAAAGGUAAACGCAGAUUGUAUCUUUUUUAAUGGUACGGCAUAAAAAGUAACCCUCAAGUGAAGUGUC`: “RBNS enrichment (R)” 0.464.

Excerpt of the above (set 3):
Under “mean fluorescence intensity”, `2'F-ANA at 6 7 9 11 15` is recorded as 348 a.u.
`2'F-ANA at 1 2 3 4 5 6 7 8 11 15`: “mean fluorescence intensity” 57.8 a.u.
`2'F-ANA at 3 4 5 6 7 8 9 12 13`: “mean fluorescence intensity” 122 a.u.
`2'F-ANA at 2 4 5 6 11 12 14 15` — result for “mean fluorescence intensity”: 48.4 a.u.
Under “mean fluorescence intensity”, `2'F-ANA at 1 4 7 8 10 13 14 15` is recorded as 97.5 a.u.
